Measurements of several laboratories.
Parts stem from different laboratories: compare values within a part only.

Sample 1 — technique: RNA Bind-n-Seq; molecule type: RNA; matrix: in vitro; concentration: 365 nM; baseline: no-protein control; direction: higher = stronger binding
Target: RNA binding protein fox-1 homolog 2, RRM domain, GST-SBP tag (RBFOX2, Homo sapiens, UniProt O43251-10, residues 100-194)
Setting: natural RNA segment, single round, ends assumed
Residues (chain): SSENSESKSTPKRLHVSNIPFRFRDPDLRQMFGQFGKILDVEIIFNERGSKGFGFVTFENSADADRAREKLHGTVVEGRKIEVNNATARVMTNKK
Under “RBNS enrichment (R)”, `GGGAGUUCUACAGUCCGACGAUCAAAACCGAGAGCUUCACUAAAUGGUAGAUUUUGCUGUCAGAGACCCUACAAUAAGAUUGUUUUAUCUGUACAUUUUUUCAGAUAUUUAACUGUAUAAAAUGUUCAUUUUAUGGAAUUCUCGGGUGCCAA` is recorded as 0.4.
`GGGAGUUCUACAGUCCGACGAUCGAUAUACUUGUAUUUAUACCUCAGAUAUUCUUUUGGGUUUUGUACCUCAAGGCUUUUUUCUUCUUAUUGUAAAUACACUUUACGUGAAUACAGUCUAAGUGAAGAAAAUAUGGAAUUCUCGGGUGCCAA` — result for “RBNS enrichment (R)”: 0.531.
For `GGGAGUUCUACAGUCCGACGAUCGGAUAGAGACUGCUGGGUUCGUCCCAGCCUGCCCAUCCCUAUUACAAACACUGGACACCAUCACCUCUUUGGAACUGCCAGACCCUGGGAGUUCCCAGCGCGAAAGGUCUUGGAAUUCUCGGGUGCCAA`, “RBNS enrichment (R)” read 0.215.
`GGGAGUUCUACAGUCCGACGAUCGGAGGCCACAAUGCCAAGGUUCCCUAGUGUGUUUUUCUUUGUUGGUUCUUAAAAUUAUCAACCUUUGUUACGGAUGGGCCUCCACUAGGUGGCUGUGGGUAAAGUCUUGGUGGAAUUCUCGGGUGCCAA`: “RBNS enrichment (R)” 0.553.
`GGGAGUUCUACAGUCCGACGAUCCACACCUGGGGUGCUCGGGGGUAGGGCUGCCAUGCUGCAGAGCUGAUGGAGUGAUGUUGUGGGCACAAGGCAUCUGUCAGCUGCCUCCUUUAACAGCCAUGCCUUCUGGAUGGAAUUCUCGGGUGCCAA`: “RBNS enrichment (R)” 0.489.
`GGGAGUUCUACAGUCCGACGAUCUCCUGUUUUUAAAACAGUUUUUCAAGAUAUUAUUGCUUAAUAUGUUCAUUAUUGAUGUUUUUAUAGUGAUCCAGCCACUCUAGCUUUAAGAAUAGCUAGGUUGUAUUAAAUGGAAUUCUCGGGUGCCAA` — result for “RBNS enrichment (R)”: 1.28.
Under “RBNS enrichment (R)”, `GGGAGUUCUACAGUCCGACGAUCUUAUGAUAGAUAUGCACAUCAAAGCCUUUACCAGUAUCUUCCUGUAUUCCGUAUCAGAUUGCAAAGACGGAAUGUUACUAUUUUAUCAGCAAGGUAUUAAAAUGCAUUUAUGGAAUUCUCGGGUGCCAA` is recorded as 2.3.
`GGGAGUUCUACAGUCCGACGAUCGUAUCUGUGUGUGCCAAUGCUGUUACCACAUCCUGGUGAAGCUAAAAAAUAAAAUUUAAUUUGGACCAAAAGAAUGUUGUUAUUCAUUUGAAAUCCGCGCUGCUUGUCUGUGGAAUUCUCGGGUGCCAA`: “RBNS enrichment (R)” 1.13.

Sample 2 — technique: RNA Bind-n-Seq; molecule type: RNA; matrix: in vitro; concentration: not given; baseline: input RNA pool; direction: higher = stronger binding
Target: RING finger protein unkempt homolog, zinc fingers 1-6, GST-SBP tag (UNK, Homo sapiens, UniProt Q9C0B0, residues 30-357)
UniProt Q9C0B0, sequence (30-357, looked up): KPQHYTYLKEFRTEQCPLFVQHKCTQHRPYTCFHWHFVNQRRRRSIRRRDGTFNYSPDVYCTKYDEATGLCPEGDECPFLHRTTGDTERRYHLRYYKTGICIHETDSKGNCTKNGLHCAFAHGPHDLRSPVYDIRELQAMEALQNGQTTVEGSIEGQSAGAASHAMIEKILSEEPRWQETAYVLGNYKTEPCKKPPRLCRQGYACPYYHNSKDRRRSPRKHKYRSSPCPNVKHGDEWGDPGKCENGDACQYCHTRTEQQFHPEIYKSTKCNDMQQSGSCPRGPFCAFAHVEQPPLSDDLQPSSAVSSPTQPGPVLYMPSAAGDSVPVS
Setting: RNA with constant flanks, human and mouse sites, ends assumed
For `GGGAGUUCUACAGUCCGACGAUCUGUCAACACUGCUUUGAACAGUGCUCUGUGAAGUGUAAGUUCUUUUGUCCCAACAGUUGUACUAGCUGUCAUGUGGUUAUUGUCUGAACAAGUCUUUUGAUUUUGUUUUCCUUAAAAAGUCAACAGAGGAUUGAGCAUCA`, the bound/input enrichment was 0.186 ratio.
`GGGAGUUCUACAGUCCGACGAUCGCCGUCAGGCUACACGAGCGAGGCGAUGCGUCUAAGGAAGACAUCGAUACAGCGAUGAAGCUGGGAGCUGGGUAUCCCAUGGGUCCGUUUGAGCUUCUUGACUAUGUUGGACUGGAUACUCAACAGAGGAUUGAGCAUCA` has a bound/input enrichment of 0.165 ratio.
`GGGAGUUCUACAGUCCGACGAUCGGUGUUCCCUCUUUUUUUCCACGAGGGUGUUUUUGGCUGCAAUUGCAUGAAAUCCCAAUGGUGUAGACCAGUGGCGAUGGAUCUAGGAGUUUACCAACUGAGACAUUUUUCAAUUUCUUUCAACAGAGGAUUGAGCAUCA` has a bound/input enrichment of 0.629 ratio.
`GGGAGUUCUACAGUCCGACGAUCCCUCUUCUGGCCUGUCUGCUUGGCAAUGACAUCACUCCAGAGAGCAUGUUUGAAAGCUUUCGGUACAAGUGCUUGUCAUCCUAUGCUUCUGUGAAAGAGAAUGCUGGCAAAAAAGGAAAUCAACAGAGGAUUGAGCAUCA` has a bound/input enrichment of 0.133 ratio.
`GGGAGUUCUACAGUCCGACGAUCAAUGUGACUUCCAUGAUAAACCUAAAGAAGACUACUUCAUCAGCUGAUGCUAAAAAUGUUAGUGUGACAUCUGAGGCUUUAUCUUCAAAUCCUUCCUACAACAGAGAAAAGCGUGUUUAUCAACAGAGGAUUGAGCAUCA` has a bound/input enrichment of 0.131 ratio.
With `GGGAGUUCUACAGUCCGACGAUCCCUCUGGCCACUUAUGCCCCUGUCAUCUCUGCUGAGAAAGCCUACCAUGAGCAGCUUACAGUAGCAGAGAUCACCAAUGCCUGCUUUGAGCCAGCCAACCAGAUGGUGAAAUGUGACCCUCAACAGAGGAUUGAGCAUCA` the bound/input enrichment was 0.151 ratio.
The bound/input enrichment of `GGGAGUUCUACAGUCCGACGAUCCACCACCACCACCACCACCCGUGCAGUUUCACAUGGAAGCUUGUACCUGUGUUACCUCUGUAGUAAGUUGCAUGUGCGAAGUAUAACCAAAGCGAUCAUGUUUAUGUUGACCCUGCCAUACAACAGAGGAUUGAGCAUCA` is reported as 0.286 ratio.
`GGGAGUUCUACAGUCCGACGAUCUAUAGUAUAGAUUUUAUUUUUAAGAAGUUUAUAUAAUUCUUUUGUGAACCAAUAUGUAAAACUAGAAUAUUUAUUAAACUAAUAAUAUGUAUUAGUAUCAAUAAAAUAUGUAUUUAUUUUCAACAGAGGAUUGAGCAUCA` has a bound/input enrichment of 8.01 ratio.

Sample 3 — technique: protein binding microarray; molecule type: double-stranded DNA, one strand shown; matrix: in vitro; concentration: not given; baseline: not given; direction: higher = stronger binding
Target: Histone acetyltransferase KAT6A, winged helix 1, GST fusion (KAT6A, Homo sapiens, UniProt Q92794, residues 1-85)
Setting: 8-mer, flanks averaged, mean of 2 arrays, mostly near background
Target sequence (chain): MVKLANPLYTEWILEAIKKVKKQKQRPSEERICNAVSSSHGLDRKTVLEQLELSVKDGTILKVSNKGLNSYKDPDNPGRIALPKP
With `AAAATCTT` the E-score was -0.0775.
The E-score of `GCTGCTTA` is reported as -0.0293.
With `CGCAGTAC` the E-score was 0.147.
`CCCGCCCA` has an E-score of 0.179.
For `GTCCTTAA`, the E-score was -0.165.
With `CCTTGTAA` the E-score was -0.104.
`TGACCAAA` gave an E-score of -0.0778.
The E-score of `CGATACAC` is reported as -0.000575.
For `CGGTGCTC`, the E-score was 0.0635.
`AGGAAGCC` gave an E-score of -0.0188.
For `CTCAGTTA`, the E-score was -0.0779.
The E-score of `AACCAGTT` is reported as -0.158.
For `GCCTTCCC`, the E-score was 0.0913.
`AGTGTAAC` has an E-score of -0.14.
`GTTGATAA` gave an E-score of -0.111.
`CAAAAAGG` gave an E-score of -0.0668.
For `ATAACAAG`, the E-score was -0.14.
With `CTCCGAAA` the E-score was -0.0958.
The E-score of `CTCTGCAG` is reported as -0.287.
`ACTTACGA` has an E-score of -0.135.
For `GATACATA`, the E-score was -0.0548.
For `ATACGGCA`, the E-score was 0.297.
`ATCCACAG` gave an E-score of -0.111.
With `GTTCAAAA` the E-score was -0.158.
`GGCCAGCA` gave an E-score of 0.0719.

Sample 4 — technique: aptamer microarray, sandwich; molecule type: DNA with 2'F-ANA; matrix: in vitro; concentration: 200 nM; added: Cy3 exosite-II aptamer, 400 nM; direction: higher = stronger binding; oligonucleotide: GGTTGGTGTGGTTGG
Target: Prothrombin, mature alpha-thrombin (F2, Homo sapiens, UniProt P00734)
Setting: whole 15-mer aptamer, many near background
`2'F-ANA at 1 2 4 5 6 8 9 11 12 15`: “mean fluorescence intensity” 88.8 a.u.
For `2'F-ANA at 1 3 7 8 9 13 14`, “mean fluorescence intensity” read 120 a.u.
`2'F-ANA at 1 6 12 13 14 15` — result for “mean fluorescence intensity”: 67 a.u.
Under “mean fluorescence intensity”, `2'F-ANA at 2 4 5 8 9 11 13 14` is recorded as 46.9 a.u.
`2'F-ANA at 2 3 6 8 12 13 14` — result for “mean fluorescence intensity”: 442 a.u.
`2'F-ANA at 2 3 5 8 9 11 12 15`: “mean fluorescence intensity” 172 a.u.
`2'F-ANA at 1 6 7 11 12 15` — result for “mean fluorescence intensity”: 271 a.u.
`2'F-ANA at 4 5 8 10 12 15`: “mean fluorescence intensity” 104 a.u.
`2'F-ANA at 4 5 6 7 13`: “mean fluorescence intensity” 54.3 a.u.
`2'F-ANA at 1 6 7 9 10 12`: “mean fluorescence intensity” 66.2 a.u.
`2'F-ANA at 1 8 9 10 12 13 14` — result for “mean fluorescence intensity”: 47.6 a.u.
For `2'F-ANA at 1 4 5 6 7 8 9 10 11 12 13 15`, “mean fluorescence intensity” read 52.5 a.u.
`2'F-ANA at 1 3 4 5 8 10 12 13` — result for “mean fluorescence intensity”: 44.3 a.u.
Under “mean fluorescence intensity”, `2'F-ANA at 1 2 3 4 5 6 8 10 11 12 14 15` is recorded as 52.1 a.u.
For `2'F-ANA at 1 3 4 5 8 9 13 15`, “mean fluorescence intensity” read 50.8 a.u.
Under “mean fluorescence intensity”, `2'F-ANA at 2 3 4 5 6 7 9 10 11 14` is recorded as 49 a.u.
For `2'F-ANA at 1 4 10 11 12 13 14`, “mean fluorescence intensity” read 72 a.u.
`2'F-ANA at 1 2 5 9 10 11 13 15` — result for “mean fluorescence intensity”: 48.1 a.u.
For `2'F-ANA at 2 3 5 6 8 10 12 13 15`, “mean fluorescence intensity” read 56.6 a.u.
`2'F-ANA at 1 2 3 5 9 11 12 13` — result for “mean fluorescence intensity”: 78.4 a.u.
`2'F-ANA at 3 4 5 7 8 10 12` — result for “mean fluorescence intensity”: 86.1 a.u.
`2'F-ANA at 2 7 8 9 10 11 12 14` — result for “mean fluorescence intensity”: 510 a.u.
`2'F-ANA at 1 3 4 5 8 11 12 14 15` — result for “mean fluorescence intensity”: 46.2 a.u.
`2'F-ANA at 1 5 6 7 8 12 13 14 15`: “mean fluorescence intensity” 51.2 a.u.
`2'F-ANA at 1 3 4 6 9 12 13 14`: “mean fluorescence intensity” 66.6 a.u.

Repeated from above (sample 4):
`2'F-ANA at 2 3 6 8 12 13 14` — result for “mean fluorescence intensity”: 442 a.u.
`2'F-ANA at 2 3 5 8 9 11 12 15`: “mean fluorescence intensity” 172 a.u.
`2'F-ANA at 1 6 7 11 12 15` — result for “mean fluorescence intensity”: 271 a.u.
`2'F-ANA at 4 5 8 10 12 15`: “mean fluorescence intensity” 104 a.u.
`2'F-ANA at 4 5 6 7 13`: “mean fluorescence intensity” 54.3 a.u.
`2'F-ANA at 1 6 7 9 10 12`: “mean fluorescence intensity” 66.2 a.u.
`2'F-ANA at 1 8 9 10 12 13 14` — result for “mean fluorescence intensity”: 47.6 a.u.
For `2'F-ANA at 1 4 5 6 7 8 9 10 11 12 13 15`, “mean fluorescence intensity” read 52.5 a.u.
`2'F-ANA at 1 3 4 5 8 10 12 13` — result for “mean fluorescence intensity”: 44.3 a.u.
Under “mean fluorescence intensity”, `2'F-ANA at 1 2 3 4 5 6 8 10 11 12 14 15` is recorded as 52.1 a.u.
For `2'F-ANA at 1 3 4 5 8 9 13 15`, “mean fluorescence intensity” read 50.8 a.u.
